Results collected from several papers.
Each line is one published result; not all experiments were run side by side.
Organism: Enterococcus faecium

Structure (SMILES) | test | system | conditions | MIC
CCn1cc[n+](CC)[c]1[Au-][Cl] | broth dilution | DSM 20477 | 20 h, 37 °C | 1.4 µM
CN(C)c1cc(CNC2CCCC2)c(O)c2c1C[C@H]1C[C@H]3[C@H](N(C)C)C(O)=C(C(N)=O)C(=O)[C@@]3(O)C(O)=C1C2=O |  | 494, Tet M and Tet L |  | 0.5 µg/mL
CNC(CC(C)C)C(=O)NC1C(=O)NC(CC(N)=O)C(=O)NC2C(=O)NC3C(=O)NC(C(=O)NC(C(=O)NCCCNC(=N)N)c4cc(O)cc(O)c4-c4cc3ccc4O)C(O)c3ccc(c(Cl)c3)Oc3cc2cc(c3OC2OC(CO)C(O)C(O)C2OC2CC(C)(N)C(O)C(C)O2)Oc2ccc(cc2Cl)C1O (centres unmarked) |  | ATCC BAA-2317 VanA | −LTA | 4 µg/mL
CN(C)c1cc(CN2CCc3ccccc3C2)c(O)c2c1C[C@H]1C[C@H]3[C@H](N(C)C)C(O)=C(C(N)=O)C(=O)[C@@]3(O)C(O)=C1C2=O |  | 494, Tet M and Tet L |  | 0.25 µg/mL
CNC(CC(C)C)C(=O)NC1C(=O)NC(CC(N)=O)C(=O)NC2C(=O)NC3C(=O)NC(C(=O)NC(C(=O)NCCCNC(=N)N)c4cc(O)cc(O)c4-c4cc3ccc4O)C(O)c3ccc(c(Cl)c3)Oc3cc2cc(c3OC2OC(CO)C(O)C(O)C2OC2CC(C)(NCc3ccc(-c4ccc(Cl)cc4)cc3)C(O)C(C)O2)Oc2ccc(cc2Cl)C1O (centres unmarked) |  | ATCC BAA-2317 VanA | together with: +POPE 100 µg/mL | 0.3 µg/mL
CC[P+](CC)(CC)[Au-][S][C@@H]1O[C@H](COC(C)=O)[C@@H](OC(C)=O)[C@H](OC(C)=O)[C@H]1NC(=O)C(Cl)(Cl)Cl |  | ATCC 700221 |  | 0.08 µM
CC(C)C[C@H](NC(=O)[C@H](CC(N)=O)NC(=O)[C@H](CCCNC(=N)N)NC(=O)[C@@H](CC(C)C)NC(=O)[C@H](Cc1ccc2ccccc2c1)NC(=O)[C@H](CC(=O)O)NC(=O)[C@H](CCCCN)NC(=O)[C@@H](CC(C)C)NC(=O)[C@H](CCCNC(=N)N)NC(=O)[C@H](CCC(N)=O)NC(=O)[C@@H](NC(=O)[C@@H](CC(C)C)NC(=O)[C@H](CCCNC(=N)N)NC(=O)[C@H](CCCCN)NC(=O)[C@H](Cc1ccccc1)NC(=O)CN)C(C)C)C(=O)N[C@H](C(N)=O)C(C)C | broth microdilution | ATCC 51559 |  | 3.1 µM
C=C(NC(=O)C(=C)NC(=O)c1csc(C2=NC3c4csc(n4)C4NC(=O)c5csc(n5)C(C(C)(O)C(C)O)NC(=O)C5CSC(=N5)C(=CC)NC(=O)C(C(C)O)NC(=O)c5csc(n5)C3(CC2)NC(=O)C(C)NC(=O)C(=C)NC(=O)C(=C)NC(=O)C(C(C)CC)NC2C=Cc3c(C(C)O)cc(nc3C2O)C(=O)OC4C)n1)C(N)=O (centres unmarked) | broth microdilution | ATCC 12952 VRE | 18 h, 37 °C | 0.008 µg/mL
CCN(CC)CCCN1/C(=C/c2cc[n+](C)c3ccccc23)Sc2ccccc21 | microbial growth, broth dilution | ATCC49624 |  | 8 µg/mL
CN(C)c1cc(CNCCC(C)(C)C)c(O)c2c1C[C@H]1C[C@H]3[C@H](N(C)C)C(O)=C(C(N)=O)C(=O)[C@@]3(O)C(O)=C1C2=O |  | 494, Tet M and Tet L |  | 1 µg/mL
CC1=CC2(C)C(=C(C)C3C4CC(C)CC(C)C4C4Oc5ccc(cc5)CC5(O)NC(=O)C(=C(O)C2C43)C5Nc2ncnc3c2ncn3C2OC(CO)C(O)C2O)C1C (centres unmarked) | microbial growth, broth dilution | ATCC35667 |  | 12.5 µM

A few entries again:
Structure (SMILES) | test | system | conditions | MIC
CC1=CC2(C)C(=C(C)C3C4CC(C)CC(C)C4C4Oc5ccc(cc5)CC5(O)NC(=O)C(=C(O)C2C43)C5Nc2ncnc3c2ncn3C2OC(CO)C(O)C2O)C1C (centres unmarked) | microbial growth, broth dilution | ATCC35667 |  | 12.5 µM
CN(C)c1cc(CNC2CCCC2)c(O)c2c1C[C@H]1C[C@H]3[C@H](N(C)C)C(O)=C(C(N)=O)C(=O)[C@@]3(O)C(O)=C1C2=O |  | 494, Tet M and Tet L |  | 0.5 µg/mL
